Results pooled from the literature.
Lines come from different studies, so protocols differ. Numbers after ± are the reported error.
DRD2: D(2) dopamine receptor (DRD2, Homo sapiens, UniProt P14416)
Chain of UniProt P14416 (whole entry, looked up): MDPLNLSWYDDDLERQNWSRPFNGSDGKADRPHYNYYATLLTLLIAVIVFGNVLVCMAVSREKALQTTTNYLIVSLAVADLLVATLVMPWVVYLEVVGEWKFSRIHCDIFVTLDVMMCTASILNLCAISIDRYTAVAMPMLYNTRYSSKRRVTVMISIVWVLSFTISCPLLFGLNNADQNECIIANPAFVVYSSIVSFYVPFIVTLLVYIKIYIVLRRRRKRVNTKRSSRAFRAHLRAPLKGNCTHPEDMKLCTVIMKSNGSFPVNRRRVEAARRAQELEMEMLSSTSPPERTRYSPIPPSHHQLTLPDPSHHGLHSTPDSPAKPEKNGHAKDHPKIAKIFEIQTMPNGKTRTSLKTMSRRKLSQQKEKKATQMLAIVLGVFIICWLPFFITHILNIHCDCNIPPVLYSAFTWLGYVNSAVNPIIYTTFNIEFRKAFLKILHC

CCN1/C(=C/C(C)=O)Sc2ccc(F)cc21 — inhibition (D(2) dopamine receptor, short isoform (DRD2, Homo sapiens, UniProt P14416); radioligand binding; 10 µM): 6.33%
NC/C(=C\F)COc1cccc(Cn2c(=S)[nH]c(=O)c3[nH]cnc32)c1 — inhibition (DRD2; radioligand binding; 10 µM): < 50%
O=C(NO)c1ccc(CN2CCCCc3ccccc32)c(F)c1 — inhibition (DRD2; radioligand binding, radioligand displacement; 10 µM): -11.1%
COc1cc2c(cc1OC)C(=O)C(CC1CCN(Cc3ccccc3)CC1)C2 (stereo not drawn) — inhibition (DRD2; radioligand binding; 10 µM, together with: [3H]N-methylspiperone): 18.6%
O=C(c1ccc(F)cc1)N(Cc1ccccc1)C1CCCCC1 — inhibition (DRD2; 10 µM): -1%
Cc1cc2c(N3CCN(CCCCOc4ccc5c(c4)NC(=O)CC5)CC3)cccc2[nH]1 — log(τ/KA) (DRD2; Gi/o activation, agonist, cAMP GloSensor inhibition; human cells): 9.25 ± 0.05
CCN1CCCC1CNC(=O)c1cc(S(N)(=O)=O)ccc1OC (stereo not drawn) — Schild slope (DRD2; β-arrestin recruitment, antagonist, Schild analysis; together with: dopamine): 0.678 ± 0.026
CCN(Cc1ccccc1C(F)(F)F)C(=O)C1CCN(S(=O)(=O)c2ccc3[nH]ncc3c2)CC1 — inhibition (DRD2; radioligand binding; 10 µM): 6%
COc1cc(NC(C)=O)c(Cl)cc1C(=O)Nc1nccs1 — inhibition (DRD2; 10 µM): -2.3%
Cc1cc(F)cc2c(CCC(=O)N[C@@H]3C(=O)NC[C@H]3O)c(-c3ccc(F)cc3)[nH]c12 — inhibition (DRD2; binding; 10 µM): -9%
Cc1cc2c(N3CCN(CCCCOc4ccc5c(c4)NC(=O)CC5)CC3)cccc2n1C — log(τ/KA) (DRD2; Gi/o activation, agonist, cAMP GloSensor inhibition; human cells): 7.75 ± 0.07
O=C(Nc1ccc(S(=O)(=O)N2CCC(Cl)CC2)cc1)c1ccc([N+](=O)[O-])o1 — inhibition (DRD2; radioligand binding; 10 µM): 21%
